{"data": "Earlier results that unrelated publications cite", "note": "Protocols differ between the studies behind these lines. “And” joins repeats or separate records; there may be more than shown. ± marks the error that the study gave.", "UniProt P28223, sequence (whole entry, looked up)": "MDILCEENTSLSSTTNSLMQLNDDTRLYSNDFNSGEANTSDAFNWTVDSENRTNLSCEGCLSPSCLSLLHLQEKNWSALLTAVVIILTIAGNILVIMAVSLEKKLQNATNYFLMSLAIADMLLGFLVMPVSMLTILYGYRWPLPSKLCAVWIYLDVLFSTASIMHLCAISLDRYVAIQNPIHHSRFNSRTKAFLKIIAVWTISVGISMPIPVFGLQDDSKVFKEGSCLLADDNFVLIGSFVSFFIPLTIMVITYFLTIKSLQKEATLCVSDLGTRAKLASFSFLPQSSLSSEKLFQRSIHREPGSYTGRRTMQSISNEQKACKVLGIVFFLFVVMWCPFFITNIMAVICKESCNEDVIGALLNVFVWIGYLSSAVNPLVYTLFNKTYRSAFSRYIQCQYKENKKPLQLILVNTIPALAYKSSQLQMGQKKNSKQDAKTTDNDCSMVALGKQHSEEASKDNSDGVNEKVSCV"}
{"SMILES": "CCOC(=O)C(c1cc(Cl)c2cccnc2c1O)N1CCOCC1 (centres unmarked)", "target or system": "COLO 205", "test": "cell viability", "measurement": "IC50", "value": "2.05 µM"}
{"SMILES": "O=C(O)CN1CCNCCNCCN(CC(=O)O)CC1", "test system": "0.1 M KCl", "measurement": "log KH2", "value": 9.58}
{"SMILES": "FC(F)(F)c1cc2nc(c1)CNCCNCCNC2.[Cu+2]", "test": "cyclic voltammetry", "test system": "DMF", "setting": "scan rate 100 mV/s", "measurement": "peak separation ΔE", "value": "182 mV"}
{"SMILES": "Cc1cc(-c2ccc(C#N)cc2)cc(C)c1Oc1ccnc(Nc2ccc(C#N)cc2)n1", "test system": "human liver microsomes", "measurement": "half-life", "value": "14.6 min"}
{"SMILES": "O=C(N1CCC(C(c2ccc3c(c2)OCO3)c2ccc3c(c2)OCO3)CC1)n1cncn1 [carbon-11 labelled]", "measurement": "logD", "value": 3.32}
{"SMILES": "C[C@@H](Nc1c(-c2c(F)cc(C#N)cc2F)c(Cl)nc2ncnn12)C(C)(C)C", "test system": "wild-type mice", "setting": "intraperitoneal, 16 h, total concentrations", "measurement": "brain/plasma AUC ratio", "value": 1}
{"SMILES": "[O-]c1cccc(-c2cccc([O-])n2)n1.[Ru+2].c1cnc2c(c1)ccc1cccnc12.c1cnc2c(c1)ccc1cccnc12", "test system": "CD3OD", "setting": "basic deprotonated form", "measurement": "singlet oxygen quantum yield", "value": 0.87}
{"SMILES": "C/C(N)=N/C(=N\\S(=O)(=O)c1ccc(C(F)(F)F)cc1)N1C[C@H](c2ccccc2)C(c2ccc(Cl)cc2)=N1", "test system": "MDR1 knockout mouse", "measurement": "brain to plasma ratio", "value": "49%"}
{"SMILES": "CCn1c(=O)c(-c2cc(NC(=O)Nc3ccccc3)c(F)cc2Br)cc2cnc(N)cc21", "test system": "Chinese patients", "setting": "dose not given", "measurement": "median trough concentration", "value": "655 ng/mL"}
{"SMILES": "CN(C)CCN1CCN(CCCN2c3ccccc3Sc3ccc(C(F)(F)F)cc32)CC1", "measurement": "logP", "value": 4.84}
{"SMILES": "O=C(O)CCCCC1(N(CC(=O)O)CC(=O)O)CN(CC(=O)O)CCN(CC(=O)O)C1", "test": "pH-potentiometry, measured: logK3H", "test system": "0.15 M NaCl", "setting": "25 °C", "measurement": "protonation constant (log)", "value": 4.68}
{"SMILES": "CC(C)COC(=O)c1ccc(O)cc1", "setting": "pH 7.4", "measurement": "logD", "value": 2.86}
{"SMILES": "O=C(O)c1cc2cc(O)ccc2n1Cc1ccc(Cl)c(C(F)(F)F)c1", "measurement": "pKa", "value": 3.7}
{"SMILES": "O=C(Oc1ccccc1)c1ccc(O)cc1", "test": "octanol-water", "measurement": "logP", "value": 3.26}
{"SMILES": "CN1CCN(c2ccc3[nH]c(-c4ccc5[nH]c(-c6ccc(OCCCCNC(=O)c7ccc8c(c7)C7(OC8=O)c8ccc(N(C)C)cc8[Si](C)(C)c8cc(N(C)C)ccc87)cc6)nc5c4)nc3c2)CC1", "test system": "PBS", "setting": "2 µM, together with: 30 µM hairpin DNA", "measurement": "fluorescence quantum yield", "value": "0.156 ± 0.002"}
{"SMILES": "COc1cc(-c2nc3ccccc3s2)cc(CN2CCN(CC(=O)O)CCN(Cc3cc(-c4nc5ccccc5s4)cc(OC)c3O)CC2)c1O", "setting": "68Ga(III) complex", "measurement": "logD", "value": 1.66}
{"SMILES": "CN1CCN(c2ccc3[nH]c(-c4ccc5[nH]c(-c6ccc(OCCCCNC(=O)c7ccc8c(c7)C(=O)OC87c8ccc(N(C)C)cc8C(C)(C)c8cc(N(C)C)ccc87)cc6)nc5c4)nc3c2)CC1", "test system": "PBS with 0.1% SDS", "measurement": "fluorescence quantum yield", "value": "0.576 ± 0.004"}
{"SMILES": "Cc1ncsc1-c1ccc(CNC(=O)[C@@H]2C[C@@H](O)CN2C(=O)[C@@H](NC(=O)COCCOCCOCCNC(=O)C[C@@H]2N=C(c3ccc(Cl)cc3)c3c(sc(C)c3C)-n3c(C)nnc32)C(C)(C)C)cc1", "test system": "mouse", "setting": "subcutaneous, 5 mg/kg", "measurement": "bioavailability", "value": "83%"}
{"SMILES": "COc1ccc(CNc2nc([C@H]3CC[C@H](C(=O)O)CC3)nc3sc4ccccc4c23)cc1Cl", "test system": "mouse", "measurement": "oral bioavailability", "value": "< 5%"}
{"SMILES": "Cc1ccc2c(c1)nc(CCN1C(=O)c3cccc4cccc(c34)C1=O)n2-c1ccncc1", "test system": "Sprague-Dawley rat", "setting": "oral, 10 mg/kg", "measurement": "Tmax", "value": "15 min"}
{"SMILES": "Oc1c(C(c2ccccc2)c2c[nH]c3ccccc23)cc(Cl)c2cccnc12 (centres unmarked)", "target or system": "COLO 205", "test": "cytotoxicity", "measurement": "IC50", "value": "2.49 µM and 2.63 µM"}
{"SMILES": "[Cu+2].c1cc2nc(c1)CNCCNCCNC2", "test": "cyclic voltammetry", "test system": "DMF", "setting": "scan rate 100 mV/s", "how to read": "baseline: Fc/Fc+", "measurement": "half-wave potential", "value": "-948 mV"}
{"SMILES": "CN1CCN(c2ccc3[nH]c(-c4ccc5[nH]c(-c6ccc(OCCCCNC(=O)c7ccc8c(c7)C7(OC8=O)c8ccc(N(C)C)cc8C(C)(C)c8cc(N(C)C)ccc87)cc6)nc5c4)nc3c2)CC1", "test system": "PBS", "measurement": "fluorescence quantum yield", "value": "0.033 ± 0.003"}
{"SMILES": "CCCCCCCCCCCCOC(=O)c1ccc(O)cc1", "setting": "pH 7.4", "measurement": "logD", "value": 6.23}
{"SMILES": "O=c1ccc(OCCCN2CCCCC2)nn1-c1ccc(Cl)c(Cl)c1", "target or system": "HTR2A (Homo sapiens, UniProt P28223)", "setting": "1.0 µM", "measurement": "inhibition", "value": "51.5 ± 3.8%"}
{"SMILES": "O=C(O)CN(CC(=O)O)[C@H]1CCCC[C@@H]1N(CC(=O)O)Cc1ccccn1", "setting": "0.15 M NaCl", "measurement": "sum of log KiH", "value": 19.7}
{"SMILES": "Clc1cc2nc(c1)CNCCNCCNC2.[Cu+2]", "test": "cyclic voltammetry", "test system": "DMF", "setting": "scan rate 100 mV/s", "how to read": "baseline: Fc/Fc+", "measurement": "half-wave potential", "value": "-929 mV"}
{"SMILES": "COc1ccc(Nc2nc(Nc3ccc(OCC[18F])cc3)ncc2Br)cc1", "test system": "S180 tumour-bearing mice", "setting": "intravenous, 120 min", "how to read": "baseline: tumour over muscle", "measurement": "tumour to tissue ratio", "value": 1.96}
{"SMILES": "CC1(N(CC(=O)O)CC(=O)O)CN(CC(=O)O)CCN(CC(=O)O)C1", "test": "pH-potentiometry, measured: logK2H", "test system": "0.15 M NaCl", "setting": "25 °C", "measurement": "protonation constant (log)", "value": 6.5}
{"SMILES": "Ic1cc2nc(c1)CNCCNCCNC2.[Cu+2]", "test": "cyclic voltammetry", "test system": "DMF", "setting": "scan rate 100 mV/s", "how to read": "baseline: Fc/Fc+", "measurement": "half-wave potential", "value": "-859 mV"}
{"SMILES": "COC1=CC(c2ccc[nH]2)=NC1=CNC12CC3CC(CC(C3)C1)C2.Cl", "test": "metabolic stability", "test system": "human liver microsomes", "measurement": "half-life", "value": "> 60 min"}
{"SMILES": "COc1cc2nc(c1)CNCCNCCNC2.[Cu+2]", "test": "cyclic voltammetry", "test system": "DMF", "setting": "scan rate 100 mV/s", "how to read": "baseline: Fc/Fc+", "measurement": "half-wave potential", "value": "-988 mV"}
{"SMILES": "COc1ccc2c(c1)O[B-]1(c3ccccc3)OC(=O)C(c3ccccc3)=N[N+]1=C2 (centres unmarked)", "test system": "buffer with 1.5% acetonitrile", "setting": "concentration not given, pH 7", "measurement": "hydrolysis half-life", "value": "2 min"}
{"SMILES": "O=C(O)CN1CCN(CC(=O)O)CCN(CC(=O)O)CC1", "test": "protonation constant", "setting": "0.1 M Me4NCl", "measurement": "log KH3", "value": 3.22}
{"SMILES": "Cc1ccc(CN)cc1", "setting": "amine, free unbound form", "measurement": "pKa", "value": 9.5}
{"note": "A few entries again:"}
{"SMILES": "Oc1c(C(c2ccccc2)c2c[nH]c3ccccc23)cc(Cl)c2cccnc12 (centres unmarked)", "target or system": "COLO 205", "test": "cytotoxicity", "measurement": "IC50", "value": "2.49 µM and 2.63 µM"}
{"SMILES": "[Cu+2].c1cc2nc(c1)CNCCNCCNC2", "test": "cyclic voltammetry", "test system": "DMF", "setting": "scan rate 100 mV/s", "how to read": "baseline: Fc/Fc+", "measurement": "half-wave potential", "value": "-948 mV"}
